Assay results of several laboratories.
Every numbered part comes from another study and shows a few of its results, in no order. Changes are numbered by the printed parent chain.

Series 1
Target: Fragile X messenger ribonucleoprotein 1, C-terminal low-complexity region (Fmr1, Mus musculus, UniProt P35922)
Technique: RNA Bind-n-Seq
Molecule type: RNA
Sample: in vitro
Tested at: 200 nM
Notes: whole 134-nt RNA, ends assumed
Added: 150 mM LiCl
Relative to: input library
Reading: higher = stronger binding
Library: 7-deaza-guanosine replaces G
Sequence	log2 enrichment
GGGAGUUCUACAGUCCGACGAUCAAGUCCUGUGCUACACAUCGUAUGUACCGAAUCGGGAAAAAAAGGGUGGGAAAGGGAAAGUAUUAUGUUACGCCGUUCGGAUCUGCACUUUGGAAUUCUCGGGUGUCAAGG	-1.07
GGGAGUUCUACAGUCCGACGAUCCCUCAAGUCCUGUGCUACACAUCGUAUGUACCGAAUCGGGAGGGAGGGGAGGAAAGUAUUAUGUUACGCCGUUCGGAUCUGCACUUCCAGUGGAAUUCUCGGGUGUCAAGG	-0.945
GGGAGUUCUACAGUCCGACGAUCAAGUCCUGUGCUACACAUCGUAUGUACCGAAUCGGAAAAGGGAAAAGGGGAAAAGGAAAGUAUUAUGUUACGCCGUUCGGAUCUGCACUUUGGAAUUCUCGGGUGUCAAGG	-0.525
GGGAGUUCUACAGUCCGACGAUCCAAGUCCUGUGCUACACAUCGUAUGUACCGAAUCGGUUUUUGGAAAGGAAAAAGGAAAGUAUUAUGUUACGCCGUUCGGAUCUGCACUUCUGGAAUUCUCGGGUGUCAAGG	-1.23
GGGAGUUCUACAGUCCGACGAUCUGGGAGGUGGAUUUUGUUUAUUUUUUUAGCUCAUUUCCAGGGGUGGGAAUUUUUUAUUAAUAUGUGUCAUGAAUAAAGUUGUUUUUGAAAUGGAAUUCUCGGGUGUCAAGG	-0.346
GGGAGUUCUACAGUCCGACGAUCCACAGACAACACGCACCCACACAGACACAGAGGGAAGGGGUUGGGAUGGGGACAGGGUGCACAGCAGGGCGGGGUCGGACCCCAGCCCCUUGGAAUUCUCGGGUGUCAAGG	0.761
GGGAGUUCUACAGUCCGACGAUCUGGCCCUGGUUGCAUGCGGGGAGGAAGAGGUGGCCUCAUGGAUCGUGGUGGUCCCGGUGGAAUGUUCAGAGGUGGCCGUGGUGGAGACAGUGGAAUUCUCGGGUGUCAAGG	0.211
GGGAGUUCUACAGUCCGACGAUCGCAGGAAGUAAAAACAAAUGGAAAUGCUUCGGAUAGUGGCAGGGGAGGGGGUUGCUAAGGAAAGGGUGGGAUGGGAGUGGGUAAAGAGUUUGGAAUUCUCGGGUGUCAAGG	1.49
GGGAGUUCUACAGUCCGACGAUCCAAGUCCUGUGCUACACAUCGUAUGUACCGAAUCGGGUUUUUUUGGGUGGGUGGGAAAGUAUUAUGUUACGCCGUUCGGAUCUGCACUUCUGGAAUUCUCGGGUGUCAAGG	-0.541
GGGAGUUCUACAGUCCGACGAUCGUCCUGUGCUACACAUCGUAUGUACCGAAUCGGGGAAAAAGGGAAAAAGGGAAAAAGGAAAGUAUUAUGUUACGCCGUUCGGAUCUGCACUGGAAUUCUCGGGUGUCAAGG	0.168
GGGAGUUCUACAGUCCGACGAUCCCUGUGCUACACAUCGUAUGUACCGAAUCGGGAAAAAAAGGGAAAAAAAGGGAAAAAAAGGAAAGUAUUAUGUUACGCCGUUCGGAUCUGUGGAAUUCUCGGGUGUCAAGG	-0.0769

Series 2
Target: Hepatocyte nuclear factor 3-beta, forkhead domain (FOXA2, Homo sapiens, UniProt Q9Y261, residues 142-269)
Technique: protein-binding microarray
Molecule type: double-stranded DNA, one strand shown
Sample: in vitro
Tested at: not given
Notes: k-mer, scored over probes, only values ≥0.25
Reading: higher = stronger binding
Construct (chain): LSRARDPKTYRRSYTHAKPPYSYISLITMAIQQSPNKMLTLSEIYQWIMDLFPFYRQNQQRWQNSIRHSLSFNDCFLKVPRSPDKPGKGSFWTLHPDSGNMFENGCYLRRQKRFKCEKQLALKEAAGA
Sequence	E-score
ATTAGAAC	0.267
ATATTCTG	0.268
TCATATGA	0.275
ATCATAAA	0.271
GATCATAA	0.317
AACGATAT	0.349
AAAGTTAG	0.25
AATATCTA	0.26
AACGCAAC	0.278
ATGCCATA	0.312
AAGATACA	0.332
ACCATACT	0.259
ACAATACC	0.343
CTGTTTAC	0.4
GTACACAA	0.373
ACAATATA	0.295
ACATTATA	0.337
GTTTGATA	0.266
AATATTAA	0.279
TACAATGA	0.258

Series 3
Molecule: PhoQ, residues 284 288 289 292 302 303 TGYLSA
Technique: Sort-seq
Item: YFP reporter
Sample: E. coli
Notes: PhoQ-PhoP variant library
Added: 10 µM Mg2+
Relative to: high Mg2+ state
Reading: higher = stronger signaling
target	fold induction
PhoP, residues 12 14 15 18 19 VHTVL (Escherichia coli, UniProt P23836)	7.55
PhoP, residues 12 14 15 18 19 ICWRQ (Escherichia coli, UniProt P23836)	4.18
PhoP, residues 12 14 15 18 19 TQCLL (Escherichia coli, UniProt P23836)	3.93

Series 4
Target: ABI1, truncated, D143A, DHFR fusion (Arabidopsis thaliana)
Technique: DHFR PCA, deep sequencing
Sample: yeast
Notes: methotrexate growth selection, single substitutions
Added: (+)-ABA 4.8 µM
Relative to: wild-type fitted maximum
Reading: higher = stronger binding
Starting sequence: PYL1, truncated, DHFR fusion (Arabidopsis thaliana); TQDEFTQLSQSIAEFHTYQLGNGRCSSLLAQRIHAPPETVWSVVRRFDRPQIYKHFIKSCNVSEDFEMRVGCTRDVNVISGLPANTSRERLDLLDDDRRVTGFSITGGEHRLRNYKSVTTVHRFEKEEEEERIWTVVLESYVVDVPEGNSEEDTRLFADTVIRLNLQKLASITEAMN; partner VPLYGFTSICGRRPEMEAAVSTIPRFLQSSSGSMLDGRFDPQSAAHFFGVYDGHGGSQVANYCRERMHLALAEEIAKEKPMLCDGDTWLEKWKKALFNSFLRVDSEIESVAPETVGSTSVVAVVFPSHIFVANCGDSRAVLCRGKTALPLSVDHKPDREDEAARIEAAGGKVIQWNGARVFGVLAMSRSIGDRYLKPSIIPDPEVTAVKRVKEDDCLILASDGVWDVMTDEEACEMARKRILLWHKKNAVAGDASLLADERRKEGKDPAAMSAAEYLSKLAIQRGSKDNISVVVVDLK
Variant	relative binding score [%]
R90T	45.8
S171E	93
S59T	72.9
I162F	-6.39
L82Y	20
V142C	70
V121G	-2.2
V40A	-4.19
V121F	-1.28
P146T	1.49
V136Y	46.4
R46D	7.42
C25G	-0.54
C25P	0.626
R132W	38.2

Series 5
Target: CRIPT, C-terminal peptide
Technique: DHFR complementation, deep sequencing
Sample: yeast
Notes: single substitutions, model-inferred values
Relative to: wild type
Reading: higher = weaker binding
Starting sequence: ERBIN, PDZ domain 1 (human); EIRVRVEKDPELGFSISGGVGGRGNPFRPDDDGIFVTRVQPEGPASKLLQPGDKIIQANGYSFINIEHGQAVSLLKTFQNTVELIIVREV; partner TKNYKQTSV
Variant	binding free energy change [kcal/mol]
A71L	1.53
I64C	0.0378
S62Y	0.0545
G13D	1.05
K76S	0.666
N65S	0.0199
G18N	1.48
R23Y	-0.595
V39H	0.58
Q70A	-0.0435
R88Y	1.51
G33V	0.536
T81M	-0.0189
P29C	0.0211

Series 6
Target: Sal-like protein 4, full length isoform B (SALL4, Homo sapiens, UniProt Q9UJQ4-2, residues 1-616)
Technique: universal PBM
Molecule type: double-stranded DNA, one strand shown
Sample: in vitro
Tested at: not given
Notes: 8-mer, flanks averaged, mean of replicates
Reading: higher = stronger binding
Residues (chain): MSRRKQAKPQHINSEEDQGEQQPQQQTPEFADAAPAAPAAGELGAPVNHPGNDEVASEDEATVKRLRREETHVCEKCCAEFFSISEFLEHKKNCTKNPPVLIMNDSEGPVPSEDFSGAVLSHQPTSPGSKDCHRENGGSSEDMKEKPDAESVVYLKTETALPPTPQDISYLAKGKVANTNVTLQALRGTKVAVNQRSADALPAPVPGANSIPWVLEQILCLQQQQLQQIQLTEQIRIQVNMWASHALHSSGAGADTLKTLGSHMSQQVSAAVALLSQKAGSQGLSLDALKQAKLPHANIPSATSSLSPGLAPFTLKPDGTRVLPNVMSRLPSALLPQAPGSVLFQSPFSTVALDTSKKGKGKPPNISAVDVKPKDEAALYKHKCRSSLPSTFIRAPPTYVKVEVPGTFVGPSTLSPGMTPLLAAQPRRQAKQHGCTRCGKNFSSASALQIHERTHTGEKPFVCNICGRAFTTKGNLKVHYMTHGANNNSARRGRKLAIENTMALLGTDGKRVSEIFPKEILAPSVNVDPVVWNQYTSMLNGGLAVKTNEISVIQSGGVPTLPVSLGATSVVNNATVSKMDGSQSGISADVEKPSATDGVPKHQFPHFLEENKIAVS
Sequence	E-score
CGAGTGTC	-0.249
CACTAATA	0.168
CGTTAAAA	0.153
CATTGAGG	0.00379
CGGCGCAG	-0.255
CGTGGCCC	-0.282
CGGACCCC	-0.444
TATACTCA	0.265
CACTCTAA	0.0579
AGTCGGAA	-0.213
GGAGGGAA	-0.242
AACTAGAT	0.205
ACGCATGC	-0.0564
GCGGAACC	-0.225
AGAGCACG	-0.176
AGGGCTTC	-0.185
AGCCATCA	-0.0787
ACTTCTTC	0.00882
AATCATAG	0.27
AGATAACA	0.215
CTTGACAC	-0.132
GCCGAGAC	-0.272
GCAATAAA	0.283
AATCAAAG	0.0368
CGAGGCCC	-0.301

Series 7
Target: CCNA2, cyclin fold, Cln2 fusion (human)
Technique: yeast growth competition, sequencing
Sample: yeast
Notes: strong parent motif
Relative to: not given
Reading: higher = stronger binding
Starting sequence: INSM1 docking peptide (human); PKAIRKLHFEDEV; partner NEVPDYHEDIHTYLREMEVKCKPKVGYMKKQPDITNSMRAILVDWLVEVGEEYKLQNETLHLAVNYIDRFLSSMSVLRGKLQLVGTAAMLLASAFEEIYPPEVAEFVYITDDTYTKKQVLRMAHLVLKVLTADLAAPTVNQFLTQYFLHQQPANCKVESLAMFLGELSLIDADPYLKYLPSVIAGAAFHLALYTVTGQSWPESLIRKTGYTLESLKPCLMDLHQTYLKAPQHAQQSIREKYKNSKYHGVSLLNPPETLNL
Variant	normalised enrichment score
PKAHRKLHFEDEV [I4H]	5.95
PMAIRKLHFEDEV [K2M]	4.16
PKAIRTLHFEDEV [K6T]	3.21
PKAIRKMHFEDEV [L7M]	0.555
PNAIRKLHFEDEV [K2N]	4.68
PKWIRKLHFEDEV [A3W]	1.98
PKAIRKLHFEIEV [D11I]	4.32
PKAIFKLHFEDEV [R5F]	0.252
PKAIRLLHFEDEV [K6L]	1.23
PKAICKLHFEDEV [R5C]	2.17
PKAIRKLMFEDEV [H8M]	5.33
PKAIRKLHFEDMV [E12M]	5.96
PKAIRKLHFADEV [E10A]	4.89
PKAIKKLHFEDEV [R5K]	4.15
PKAIRKLHMEDEV [F9M]	1.2
PKAIRMLHFEDEV [K6M]	4.37
PKAIRKLHFETEV [D11T]	4.6
PKAIRKLHFEAEV [D11A]	5.01
PKAIRKLHFEDVV [E12V]	4.91
PKAIRGLHFEDEV [K6G]	1.7
PKAIRKLHFHDEV [E10H]	4.45
PKAIRKLHFEDKV [E12K]	4.94
PEAIRKLHFEDEV [K2E]	2.44
PKAIRKNHFEDEV [L7N]	0.131
PKAIRKLHFIDEV [E10I]	4.4
